# Results pooled from the literature.
# Lines come from different studies, so protocols differ. Values joined by “and” are separate records of one study, mostly repeats; a detail may differ. ± marks the error that the study gave.
# GBA1 R534H: Lysosomal acid glucosylceramidase (GBA1, Homo sapiens, UniProt P04062, R534H)
# Sequence of UniProt P04062 (whole entry, unmodified, looked up): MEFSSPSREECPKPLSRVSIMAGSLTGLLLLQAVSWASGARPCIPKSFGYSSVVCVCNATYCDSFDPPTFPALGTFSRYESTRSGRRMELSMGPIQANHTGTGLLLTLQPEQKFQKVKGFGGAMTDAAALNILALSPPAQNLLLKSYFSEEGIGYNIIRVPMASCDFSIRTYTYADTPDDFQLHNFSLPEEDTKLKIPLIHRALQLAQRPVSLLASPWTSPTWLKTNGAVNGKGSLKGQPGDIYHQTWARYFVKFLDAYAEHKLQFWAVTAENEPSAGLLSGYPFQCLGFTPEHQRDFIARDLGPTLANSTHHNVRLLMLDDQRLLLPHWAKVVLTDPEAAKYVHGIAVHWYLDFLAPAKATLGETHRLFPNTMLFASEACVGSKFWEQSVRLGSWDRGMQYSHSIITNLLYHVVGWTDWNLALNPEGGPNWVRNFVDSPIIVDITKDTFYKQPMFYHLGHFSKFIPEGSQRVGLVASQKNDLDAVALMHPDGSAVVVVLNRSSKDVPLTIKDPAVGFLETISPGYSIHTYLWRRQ
Compound,tested on,assay,system,conditions,how to read,measurement,result
COc1ccc(/C=C/CN2CCCC(CCC(=O)NCc3ccc(F)c(F)c3)C2)cc1 (stereo not shown),Trypanosoma cruzi,"reporter mRNA translation, inhibitor, refers to: capped polyadenylated Renilla luciferase mRNA",cell-free extract,concentration not given,relative to: control RNA,relative translation,114%
O=C(Nc1cnccc1-c1ccc([18F])cc1)c1ccnc(NC(=O)C2CC2)c1,,ex vivo gamma counting,"GSK-3β transgenic mice, late-stage, liver","intravenous, 120 min, mean, no P-gp inhibitor",,SUV,5.43
CN(O)C(=O)CCC(=O)NCCCN(CCCCN(CCCNC(=O)CCC(=O)N(C)O)C(=O)CCC(=O)N(C)O)C(=O)CCC(=O)N(C)O.[89Zr],,radio-TLC,aqueous buffer,"5 d, pH 5, 37 °C, 89Zr-labelled complex, together with: DTPA 100-fold excess",,intact complex,99 ± 0.7%
CN1CCC[C@]1(C)/C=C/S(=O)(=O)NC(=O)Nc1c2c(cc3c1C(O)CC3)CCC2 (stereo partly shown),,,"human, plasma","oral, 50 mg twice daily of parent drug, day 14, metabolite of dosed drug",,Cmax at second steady-state dose,9800 ng/mL
O=C(O)CCCOc1ccc([18F])cc1-c1cc(-c2ccccc2C(F)(F)F)n(-c2ccccc2)n1,,,"mouse, urine","dose not given, 360 min post-injection",,radioactivity,1 %ID
C=C[C@]1(C)C[C@@H](OC(=O)CSc2ccc(NC(=O)c3ccco3)cc2)[C@]2(C)[C@H](C)CC[C@]3(CCC(=O)[C@H]32)[C@@H](C)[C@@H]1O,,,"Mycoplasma gallisepticum-infected chickens, plasma","intramuscular, 80 mg/kg, 1 h",,plasma concentration,6100 ng/mL and 7560 ng/mL and 6940 ng/mL and 5140 ng/mL and 10200 ng/mL and 9280 ng/mL and 9760 ng/mL and 6390 ng/mL
COc1ccc(CN2CCCC(N3CCN(c4cccc(Cl)c4)CC3)C2)cc1OC (stereo not shown),Trypanosoma cruzi,"reporter mRNA translation, inhibitor, refers to: capped polyadenylated Renilla luciferase mRNA",cell-free extract,concentration not given,relative to: control RNA,relative translation,98.7%
O=C(O)CN1CCN(CC(=O)O)CCN(CC(O)CN(CC(O)CN2CCN(CC(=O)O)CCN(CC(=O)O)CCN(CC(=O)O)CC2)C[C@H](O)[C@@H](O)[C@H](O)[C@H](O)CO)CCN(CC(=O)O)CC1 (stereo partly shown),,"pH-potentiometry, refers to: Gd2(LH-1), alcoholic OH deprotonation",,"25 °C, 0.15 M NaCl",,log K,9.24
C/C(N)=N/C(=N\S(=O)(=O)c1ccc(C(F)(F)F)cc1)N1C[C@H](c2ccccc2)C(c2ccc(Cl)cc2)=N1,,,"male C57BL/6 mouse, liver","intravenous, 10 mg/kg",,half-life,2.6 h
CC(=O)N([O-])CCCCCNC(=O)CCC(=O)N([O-])CCCCCNC(=O)CCC(=O)N([O-])CCCCCN.[89Zr+4],,,"mouse, bone",4 h,,tracer uptake,0.05 %ID/g
COc1ccc(C(N)=O)cn1,,,"Han Wistar rats, male, plasma","oral, 30 mg/kg, 1.00 h",,concentration at time,94 µM
O=C(Nc1cnccc1-c1ccc([18F])nc1)c1ccnc(NC(=O)C2CC2)c1,,ex vivo gamma counting,"GSK-3β transgenic mice, early-stage, caudate nucleus","intravenous, 120 min",,mean SUV,0.026
[123I]c1ccc2nc(-c3ccc(-n4ccnn4)nc3)cn2c1,,,"male Wistar rat, liver","intravenous, 4 MBq, 3 h",,tracer uptake,0.23 %ID/g
N=C(N)NCCC[C@@H]1NC(=O)[C@H](CO)NC(=O)[C@@H](NC(=O)[C@H](CO)NC(=O)[C@H](CO)NC(=O)[C@H](Cc2c[nH]c3ccccc23)NC(=O)CNC(=O)[C@H](CO)NC(=O)[C@@H](N)Cc2c[nH]c3ccccc23)CSSC[C@@H](C(=O)NCC(=O)O)NC(=O)[C@H](CO)NC1=O,,,"patients, plasma","intravenous, 10 mg/kg, thrice weekly, median",,Cmax,6360 ng/mL
COc1ccc2c(c1)CN(C(=O)CCN1CCC(Cc3ccccc3)CC1)CCS2,,,paroxysmal AF patients,"oral, 540 mg, 24 h",relative to: baseline,QTcB change,21.1 ms
CC(C)=CCC1=C([O-])C(=O)c2ccccc2C1=O.CC(C)=CCC1=C([O-])C(=O)c2ccccc2C1=O.Cc1cc2cccnc2c2ncccc12.O.[Cu+2],,cyclic voltammetry,"CH2Cl2, Bu4NPF6",0.1 mM,relative to: Ag/AgCl sat. KOH,Epa1 anodic peak potential,1.34 V
CNc1cc(C)c(C(N)=O)cn1,,,"Han Wistar rats, male, plasma","oral, 30 mg/kg, 4.00 h",,concentration at time,33.2 µM
CN([O-])C(=O)CN1CCN(CC(=O)N(C)[O-])CCN(Cc2ccccn2)CC1.[89Zr+4],,,"mouse, pancreas","intravenous, 1 h",,tracer uptake,0.9 %ID/g
COCC1CN(C2CCN(c3cc(OC)c(Nc4ncc(Br)c(Nc5ccc6c(c5P(C)(C)=O)OCCO6)n4)cc3C)CC2)C1,,first-in-human trial,human,"oral, 240 mg once daily",treatment-related leading to dose reduction,adverse events,0%
C=CC(=O)Nc1cc(Nc2nccc(-c3cn(C)c4ccccc34)n2)c(OC)cc1N(C)CCNC,,,"human, plasma","10 d, room temperature, high QC level",,remaining compound,37.9%
CC(C)(O)c1ncc([S@](N)(=O)=NC(=O)Nc2c3c(cc4c2CCC4)CCC3)s1,,,healthy human subjects,"oral, 100 mg, tablet, fed",,subjects with gastrointestinal adverse events,17%
COC1C=COC2(C)Oc3c(C)c(O)c4c(c3C2=O)C2=NC3(CCN(CC(C)C)CC3)NC2=C(NC(=O)C(C)=CC=CC(C)C(O)C(C)C(O)C(C)C(OC(=O)Nc2cccnn2)C1C)C4=O (stereo not shown),,,"female CD-1 mouse, plasma","intravenous, 5 mg/kg",,AUC,36800 ng·h/mL
CCCCCCCOc1ccc(CC[C@](N)(CO)COP(=O)(O)O)cc1C(F)(F)F,,,"healthy male humans, plasma","oral, 0.5 mg amiselimod, day 1, mean",,Cmax,1.19 ng/mL
CN(Cc1cc(C2CC2)on1)C(=O)c1cccc(-c2ccc(F)cc2)c1,,metabolic stability,"male CD-1 mouse, liver microsomes","2 µM, 0 h, pH 7.5",,compound remaining,100%
[11CH3]N1CCC(NC(=O)c2cc(-c3c(O)cc(O)cc3Oc3ccc([N+](=O)[O-])cc3)on2)CC1,,,"Wistar rat, female, healthy, spleen","intravenous, 18.5 MBq, 10 min",,SUV,2.2 ± 0.1
Nc1ccc(-c2cc(Cl)c(Cl)c3[nH]c4c(c23)CN(C(=O)CO)CC4)cn1,,,"C57BL/6 mice, whole blood","intravenous, 0.5 mg/kg",,blood clearance,36 mL/min/kg
CN(C)S(=O)(=O)c1ccc(S(=O)(=O)N2CCC(n3c(=O)[nH]c4ccccc43)CC2)cc1,,,mouse,"intraperitoneal, 6 mg/kg, 6 day",relative to: day 0,body weight,101%
CCCCN1C(=O)c2cccc3c(NCCCCN4CCOCC4)ccc(c23)C1=O,,,ethyl acetate,,,fluorescence lifetime,9.6 ns
OC[C@@H]1[C@@H](O)[C@H](O)[C@@H](O)CN1CCCCCOCc1ccc(-c2ccccc2)cc1C(F)(F)F,GBA1 R534H,"inhibitor, 4MU-β-D-glucopyranoside",,together with: 4MU-β-D-glucopyranoside,,IC50,200 nM
Oc1ccnc(-c2cc(O)ccn2)c1.[Cl-].[Cl-].[Ru+2].c1ccc(-c2ccnc3c2ccc2c(-c4ccccc4)ccnc23)cc1.c1ccc(-c2ccnc3c2ccc2c(-c4ccccc4)ccnc23)cc1,,,acetonitrile,basic deprotonated form,,singlet oxygen quantum yield,0.19
O=C1C2CC3CC1CC(C(=O)N1CCN(c4ccc([N+](=O)[O-])c5ncccc45)CC1)(C3)C2,,,"ICR mouse, male, plasma","oral, 5 mg/kg",,apparent volume of distribution (Vz/F),219 L/kg
Cc1cc(-c2ccc(C(=O)[C@@H]3CCCC[C@H]3C(=O)Nc3cnn4c3C(=O)NCC4)cc2)[nH]n1,,,"human, faeces","oral, 200 mg, 216-240 h, discharged subjects excluded",relative to: dose,recovery of radioactivity per interval,1.19%
OC[C@@H]1[C@@H](O)[C@H](O)[C@@H](O)CN1CCCCOCCC12CC3CC(CC(C3)C1)C2,GBA1 R534H,"inhibitor, 4MU-β-D-glucopyranoside",,together with: 4MU-β-D-glucopyranoside,,IC50,1290 nM
CCC1CNC(CC)CN(C(C(=O)[O-])c2ccc(C(=O)[O-])cc2)C(CC)CN(CC(=O)[O-])C(CC)CN1.[Mn+2] (stereo not shown),,ICP-MS,"BALB/c mice, liver","intravenous, 0.05 mmol/kg, 30 min",relative to: injected dose,Mn uptake,6.62 ± 0.87%
CSCC[C@H](N)C(=O)N[C@@H](CO)C(=O)N[C@H](C(=O)N[C@@H](C)C(=O)NCC(=O)N[C@@H](CC(C)C)C(=O)N[C@@H](CCCCN)C(=O)N[C@@H](CCCCN)C(=O)N[C@@H](CCC(N)=O)C(=O)N[C@@H](Cc1c[nH]c2ccccc12)C(=O)N[C@@H](Cc1c[nH]cn1)C(=O)N[C@@H](CCCCN)C(=O)N[C@@H](C)C(=O)N[C@H](C(=O)N[C@@H](CCC(N)=O)C(=O)N[C@@H](CCCCN)C(=O)N[C@H](C(=O)N[C@@H](CO)C(=O)N[C@@H](CCC(=O)O)C(=O)N[C@@H](CCCCN)C(=O)N[C@H](C(=O)NCC(=O)NCC(=O)N[C@@H](C)C(N)=O)C(C)C)C(C)C)[C@@H](C)O)C(C)C,,circular dichroism titration,25% DOPS/75% DOPC liposomes,"50 µM, pH 7.4, 20 °C",,ΔG of binding,-6.5 kcal/mol
[2H]C1([2H])CC[C@@H](C[C@@H](C#N)NC(=O)[C@@H]2[C@@H]3[C@H](CN2C(=O)[C@@H](NC(=O)C(F)F)C(C)(C)C)C3(C)C)C(=O)N1,,,hamster hepatocytes,,,scaled hepatic intrinsic clearance,< 28.8 mL/min/kg
C[C@]12C[C@H](c3ccc(S(C)(=O)=O)cc3)C3=C4CCC(=O)C=C4CC[C@H]3[C@@H]1CC[C@@]2(O)C(F)(F)C(F)(F)F,,refers to: compound (parent),"healthy human volunteers, pooled plasma","oral, 5 mg daily, day 28, 48 h",,plasma concentration,7.52 ng/mL
C=C(NC(=O)c1csc(-c2nc3c(cc2O)-c2nc(cs2)C(=O)NC(C(C)O)C(=O)NC(=C(C)OC)c2nc(cs2)C(=O)NC2c4nc(cs4)C(=O)NC(COC(=O)c4c5c6c(cccc6n4O)COC(=O)C(OC4CC(C)(O)C(N(C)C)C(C)O4)C2OC5)c2nc-3cs2)n1)C(N)=O (stereo not shown),,,"Sprague-Dawley rat, female, plasma","intravenous infusion, 6 mg/kg, multiple doses, day 1",,Tmax,4.8 min
CC(C)n1ncc2c(C(=O)NCC3CCN3)cc(C3CC3)nc21 (stereo not shown),,metabolic stability,"mouse, liver microsomes",,,microsomal CLint,59.1 µL/min/mg
CN1CCCNC(=O)c2cccc(c2)C(=O)NCCCN(C)CCCNc2cccc3c2C(=O)c2cccc(c2C3=O)NCCC1,,,mouse xenograft model,"dose not given, day 10, group mean",,body weight,26.7 g
CC(C)C[C@H](NC(=O)[C@H](CCCCN)NC(=O)C1CCCC=CCCC(NC(=O)[C@H](CCCCN)NC(=O)[C@@H](N)CC(C)C)C(=O)N[C@@H](CCCCN)C(=O)N[C@@H](CC(C)C)C(=O)N[C@@H](CCCCN)C(=O)N2CCC[C@@H]2C(=O)NCC(=O)N[C@@H](CCCCN)C(=O)N[C@@H](CC(C)C)C(=O)N[C@@H](CCCCN)C(=O)N1)C(N)=O (stereo partly shown),,RP-HPLC C18,,hydrophobicity,,retention time,14.6 min
O=C(NS(=O)(=O)c1cccs1)c1cc2ccccc2n1Cc1ccc(Br)c2ccccc12,,,"KM mouse, chronic hyperuricaemia model","dose not given, day 6",,body weight,27.9 g and 27.5 g and 27 g and 24.1 g and 28.1 g and 28.9 g
Cc1ccc(C(NC(=O)c2cc(-c3ccccc3)n(-c3ccccc3)n2)c2ccncc2)cc1 (stereo not shown),,,human liver microsomes,4 h,,depletion,< 15%
CCCCN1C(=O)c2cccc3c(NCCCCCCCCCCN4CCOCC4)ccc(c23)C1=O,,,acetonitrile,,,fluorescence quantum yield,0.92
Cc1c(Cc2ccc(Cl)c(O[C@H](C)C(=O)O)c2)c2ccc(C(=O)N[C@@H](C)c3ccc(C(C)(C)C)cc3)cc2n1C,,,human liver microsomes,"1 µM, together with: microsomes 1 mg/mL",,half-life,> 1 h
C[C@@H](C(=O)O)c1ccc(-c2ccccc2)c(F)c1,,HPLC,reference solution,"concentration not given, 12 h, room temperature, solution stability",,peak area change,≤ 2%

# For quick reference, copied from above:
Compound,tested on,assay,system,conditions,how to read,measurement,result
[2H]C1([2H])CC[C@@H](C[C@@H](C#N)NC(=O)[C@@H]2[C@@H]3[C@H](CN2C(=O)[C@@H](NC(=O)C(F)F)C(C)(C)C)C3(C)C)C(=O)N1,,,hamster hepatocytes,,,scaled hepatic intrinsic clearance,< 28.8 mL/min/kg
O=C(O)CCCOc1ccc([18F])cc1-c1cc(-c2ccccc2C(F)(F)F)n(-c2ccccc2)n1,,,"mouse, urine","dose not given, 360 min post-injection",,radioactivity,1 %ID
O=C(NS(=O)(=O)c1cccs1)c1cc2ccccc2n1Cc1ccc(Br)c2ccccc12,,,"KM mouse, chronic hyperuricaemia model","dose not given, day 6",,body weight,27.9 g and 27.5 g and 27 g and 24.1 g and 28.1 g and 28.9 g
